# Experimental data collected from several papers.
# Several values in a cell are separate wells, animals, samples, runs or records. ± marks the error that the study gave.
Compound,test,test system,conditions,solubility
O=C(NCc1ccc2c(c1)CN(C(=O)c1cc(-c3ccccc3)no1)C2)C1C=CC=CC=C1,LC-MS,DPBS,18 h,0.4 ± 0.1 µM
Cc1cc(C(=O)N[C@@H](CC(=O)NC(C)(C)C)C(=O)NCCNC(=O)c2cccc(-c3cc[nH]n3)c2)no1,,simulated gastric fluid,pH 1.2,> 94 µg/mL
CC1CCC2C(C)C(OC(=O)CCC(=O)OCCOC(=O)N3CCC(Nc4ccc(S(=O)(=O)NC(=O)c5ccc(N6CCN(CC7=C(c8ccc(Cl)cc8)CC(C)(C)CC7)CC6)cc5Oc5cnc6[nH]ccc6c5)cc4[N+](=O)[O-])CC3)OC3OC4(C)CCC1C32OO4 (centres unmarked),,,,2.32 µg/mL
FC(F)(F)C1(c2ccc(CN3CCN(C(c4ccccc4)c4ccc(Cl)cc4)CC3)cc2)CC1 (centres unmarked),,PBS,"2 h, pH 7.4, 25 °C",3 µM
OC[C@H]1O[C@@H](n2cnc3c(SCc4ccccc4)nc(Cl)nc32)C[C@@H]1O,UV absorbance,culture medium,stock diluted to 0.20 mM,20.8 µM
CCCCCCCC/C=C/CCCCCCCC(=O)[O][Pt-2]1([OH])([Cl])([NH+]=C(CC)N(C)CCNc2c3ccccc3[nH+]c3ccccc23)[NH2+]CCC[NH2+]1.O=[N+]([O-])[O-].O=[N+]([O-])[O-],,buffer,pH 7.0 to 7.4,~10 µM
O=C(NNCc1ccccc1)C1(C(F)(F)F)CC1,,PBS,"2 h, pH 7.4, 25 °C, 2% DMSO",454 µM
O=C(Nc1cccc(C(=O)N2CCC(c3nc(-c4ccccc4)n[nH]3)CC2)c1)c1ccccc1,LC-MS,DPBS,18 h,25.6 ± 0.2 µM
CC(C)N(Cc1ccccc1)C(=O)C1(C(F)(F)F)CC1,,PBS,"2 h, pH 7.4, 25 °C, 2% DMSO",291 µM
O=C1Nc2ccc(I)cc2C1=Cc1cc(Br)cc(Br)c1O,AlphaScreen buffer,"aqueous buffer, 7.5% DMSO",pH 7.3,96.6 ± 10 µM
O=C(Nc1ccc2ccccc2c1)C1CC2(CO1)CC(F)(F)C2 (centres unmarked),kinetic solubility,PBS with 2% DMSO,"2 h, pH 7.4, 25 °C, single incubation",34 µM and 33 µM
C[C@]12COc3ccc(Oc4ccccc4)cc3[C@H]1CCN2,,PBS,"2 h, pH 7.4",258 µM
Cc1nc(C)c(-c2ccnc(Nc3cccc(C#N)c3)n2)s1,,aqueous buffer,pH 7.4,< 1.32 µg/mL
O=C(NC1(C(F)(F)F)CCC1)c1ccccc1,,PBS,"2 h, pH 7.4, 25 °C",338 µM
CC1(C)OCCc2cc(C(=O)N3CCC(c4nc(-c5ccccc5)n[nH]4)CC3)ccc21,LC-MS,DPBS,18 h,44.2 ± 0.7 µM
O=C1Nc2ccc(I)cc2C1=Cc1ccccc1,AlphaScreen buffer,"aqueous buffer, 7.5% DMSO",pH 7.3,39.4 ± 2.3 µM
O=C(Nc1ccccc1)C1(C(F)(F)F)CCC1,,PBS,"pH 7.4, 25 °C, 2% DMSO",399 µM
O=C(OCc1ccc(F)cc1)N(Cc1cccc(CN2CCCCC2)c1)[c-]1cccc1.[Fe+2].c1cc[cH-]c1,absorbance,PBS,"pH 7.4, 1% DMSO",26 ± 2 µM
O=C(Nc1ccc2ccccc2c1)C1CC2(CC2)CO1 (centres unmarked),kinetic solubility,PBS with 2% DMSO,"2 h, pH 7.4, 25 °C, single incubation",361 µM and 358 µM
C/C(N)=N/C(=N\S(=O)(=O)c1ccc(C(F)(F)F)cc1)N1C[C@H](c2ccccc2)C(c2ccc(Cl)cc2)=N1,,simulated gastric fluid,pH 6.8,0.8 µg/mL
CCc1cc(C)cc(CC)c1-c1c(OC(=O)C2(C(F)(F)F)CCC2)n2n(c1=O)CCOCC2,,PBS,"2 h, pH 7.4, 25 °C",282 µM
CC1(C)C(=CC=C2CCCC(C=CC3=[N+](CCC[N+](C)(C)C)c4ccc(S(=O)(=O)O)cc4C3(C)C)=C2SCCOCCOCCC(=O)O)N(CCC[N+](C)(C)C)c2ccc(S(=O)(=O)O)cc21,,PBS,pH 7.4,79000 µg/mL
O=C1Nc2ccccc2C1=Cc1cc(Br)c(O)c(Br)c1,AlphaScreen buffer,"aqueous buffer, 7.5% DMSO",pH 7.3,395 ± 16 µM
O=C(Nc1ccc2ccccc2c1)C1CC2(C1)CC(F)(F)C2,kinetic solubility,PBS with 2% DMSO,"2 h, pH 7.4, 25 °C, single incubation",9 µM
OCC1OC(n2cnc3c(NCc4ccc(Br)s4)ncnc32)C(O)C1O (centres unmarked),,acetate buffer,pH 4.5,260 µg/mL
O=C(NO)c1ccc(/N=N/c2ccccc2)cc1,,water with 5% DMSO,,~100 µM
FC(F)(F)C1(c2ccc(CN3CCN(C(c4ccccc4)c4ccc(Cl)cc4)CC3)cc2)CCC1 (centres unmarked),,PBS,"2 h, pH 7.4, 25 °C",7 µM
O=C(N[c-]1cccc1)OCc1ccc(C(=O)O)cc1.[Fe+2].c1cc[cH-]c1,absorbance,RPMI medium with 5% FBS,1% DMSO,> 200 µM
Cc1ccc2c(c1)NC(=O)C2=Cc1cc(Br)c(O)c(Br)c1,AlphaScreen buffer,"aqueous buffer, 7.5% DMSO",pH 7.3,342 ± 29 µM
CCC1(CC)CC(=O)N(C2c3cc(C(=O)NC4c5ccccc5CC4O)ccc3OC2(C)COC)C(=N)N1 (centres unmarked),,simulated gastric fluid,pH 2,≥ 100 µM
O=C1Nc2ccc(Br)cc2C1=Cc1cc(Br)c(O)c(Br)c1,AlphaScreen buffer,"aqueous buffer, 7.5% DMSO",pH 7.3,107 ± 10 µM
O=C(Nc1ccc2ccccc2c1)C1CC2(CCC2)C1,kinetic solubility,PBS with 2% DMSO,"2 h, pH 7.4, 25 °C, mean of incubations",7 µM
CCC(C)n1c(C(=O)Nc2cnc(C(=O)NC)n(CC(C)C)c2=O)ncc(NC(=O)c2ncc(NC(=O)c3ccccc3)c(=O)n2Cc2ccc(OC)cc2)c1=O (centres unmarked),thermodynamic,PBS,"4 h, pH 7.4, 25 °C",5 µM
Cc1cccc(Oc2ccc(-n3c(=O)[nH]c4cccnc43)cn2)c1C,,simulated gastric fluid,pH 2,7 µM
CC1(C)OB(c2ccc(COC(=O)N(Cc3cn(-c4cc5ccc(O)cc5oc4=O)nn3)[c-]3cccc3)cc2)OC1(C)C.[Fe+2].c1cc[cH-]c1,absorbance,PBS,"pH 7.4, 1% DMSO",126 ± 6 µM
O=c1c2ccccc2[se]n1CCCCCCn1[se]c2ccccc2c1=O,"shake-flask, RP-HPLC",PEG400,"24 h, 25 °C",2380 ± 80 µg/mL
CN(C)S(=O)(=O)c1ccc(S(=O)(=O)N2CCC(n3c(=O)[nH]c4ccccc43)CC2)cc1,HPLC,Tween 80,"24 h, 20 °C",90 µg/mL
O=c1[nH]c2cccnc2n1-c1ccc2c(c1)OC1(CCCCC1)O2,,simulated gastric fluid,pH 2,3 µM
Cn1ccc([C@H](CCO)Nc2nc(N3CCOCC3)c3cc(-c4ccccc4)sc3n2)n1,,,,150 µM
O=C(Nc1cc(-c2ccnc3[nH]ccc23)c(Cl)cn1)[C@H]1CCC[C@@H](NC(=O)C(F)(F)F)C1,kinetic solubility,FaSSGF,pH 1.2,451 µM
C#CCN(C(=O)OCc1ccc(F)cc1)[c-]1cccc1.[Fe+2].c1cc[cH-]c1,absorbance,PBS,"pH 7.4, 1% DMSO",34 ± 5 µM
CC1(C)C(=O)N(c2cnc(C#N)c(C(F)(F)F)c2)C(=S)N1Cc1ccc(-c2c[nH]nn2)cc1,,water,10% DMSO,3000 µg/mL
CC(C)N(Cc1ccccc1)C(=O)C1(C(F)(F)F)CCC1,,PBS,"pH 7.4, 25 °C, 2% DMSO",235 µM
O=S1(=O)CC2CCCCC2CS1 (centres unmarked),"phase solubility, NMR",water,"25 °C, together with: hydroxypropyl-β-cyclodextrin 64.7 mM",9400 µM

# For quick reference, copied from above:
Compound,test,test system,conditions,solubility
O=C(Nc1cccc(C(=O)N2CCC(c3nc(-c4ccccc4)n[nH]3)CC2)c1)c1ccccc1,LC-MS,DPBS,18 h,25.6 ± 0.2 µM
CC(C)N(Cc1ccccc1)C(=O)C1(C(F)(F)F)CC1,,PBS,"2 h, pH 7.4, 25 °C, 2% DMSO",291 µM
O=C1Nc2ccc(I)cc2C1=Cc1cc(Br)cc(Br)c1O,AlphaScreen buffer,"aqueous buffer, 7.5% DMSO",pH 7.3,96.6 ± 10 µM
O=C(Nc1ccc2ccccc2c1)C1CC2(CO1)CC(F)(F)C2 (centres unmarked),kinetic solubility,PBS with 2% DMSO,"2 h, pH 7.4, 25 °C, single incubation",34 µM and 33 µM
C[C@]12COc3ccc(Oc4ccccc4)cc3[C@H]1CCN2,,PBS,"2 h, pH 7.4",258 µM
